Results from different studies.
Parts stem from different laboratories: compare values within a part only. Positions count from the first letter of the parent shown.

Block 1 — technique: aptamer microarray, sandwich; form: DNA with 2'F-ANA; sample: in vitro; concentration: 200 nM; with: Cy3 exosite-II aptamer, 400 nM; reading: higher = stronger binding; endpoint: mean fluorescence intensity; sequence: GGTTGGTGTGGTTGG
Target: Prothrombin, mature alpha-thrombin (F2, Homo sapiens, UniProt P00734)
Notes: whole 15-mer aptamer, many near background
2'F-ANA at 2 3 5 10 11 13 14: 50.8 a.u.
2'F-ANA at 2 7 8 10 12 14 15: 103 a.u.
2'F-ANA at 2 3 4 5 14 15: 54.6 a.u.
2'F-ANA at 9 13 15: 380 a.u.
2'F-ANA at 2 3 4 7 8 10 11 15: 234 a.u.
2'F-ANA at 1 2 4 7 13 15: 96.1 a.u.
2'F-ANA at 2 3 4 10 11 13 14: 174 a.u.
2'F-ANA at 1 5 6 10 12: 46.7 a.u.
2'F-ANA at 1 2 3 4 7 8 11 14 15: 85.1 a.u.
2'F-ANA at 1 4 5 8 9 11 12: 91.3 a.u.
2'F-ANA at 2 4 7 8 9 10 11 13 15: 73.8 a.u.
2'F-ANA at 4 6 7 9 10 12 13 15: 81.3 a.u.
2'F-ANA at 2 5 6 8 12 15: 305 a.u.
2'F-ANA at 1 2 3 4 8 10 12 15: 79.6 a.u.
2'F-ANA at 1 2 4 6 7 11 13: 69.9 a.u.
2'F-ANA at 1 2 3 5 8 9 10 11 15: 48.8 a.u.
2'F-ANA at 1 2 6 14: 83.7 a.u.
2'F-ANA at 2 3 4 7 9 11: 533 a.u.
2'F-ANA at 4 5 7 9 10 12 13: 88.3 a.u.

Block 2 — technique: protein-binding microarray; form: double-stranded DNA, one strand shown; sample: in vitro; concentration: 250 nM; notes: 60-bp whole probe; with: salmon DNA 0.4 mg/ml; relative to: random background probes; reading: higher = stronger binding; endpoint: log fluorescence; shared flanks, not repeated: GCCTAGCAC … GTCTTGATTCGCTTGACGCTGCTG
Target: Interferon regulatory factor 7, full length, phosphomimetic (IRF7, Homo sapiens, UniProt Q92985, residues 1-503, S101K/S471D/S472D/S475D/S476D/S477D/S483D/S484D/S487D)
Chain of UniProt Q92985 (whole entry, unmodified, looked up): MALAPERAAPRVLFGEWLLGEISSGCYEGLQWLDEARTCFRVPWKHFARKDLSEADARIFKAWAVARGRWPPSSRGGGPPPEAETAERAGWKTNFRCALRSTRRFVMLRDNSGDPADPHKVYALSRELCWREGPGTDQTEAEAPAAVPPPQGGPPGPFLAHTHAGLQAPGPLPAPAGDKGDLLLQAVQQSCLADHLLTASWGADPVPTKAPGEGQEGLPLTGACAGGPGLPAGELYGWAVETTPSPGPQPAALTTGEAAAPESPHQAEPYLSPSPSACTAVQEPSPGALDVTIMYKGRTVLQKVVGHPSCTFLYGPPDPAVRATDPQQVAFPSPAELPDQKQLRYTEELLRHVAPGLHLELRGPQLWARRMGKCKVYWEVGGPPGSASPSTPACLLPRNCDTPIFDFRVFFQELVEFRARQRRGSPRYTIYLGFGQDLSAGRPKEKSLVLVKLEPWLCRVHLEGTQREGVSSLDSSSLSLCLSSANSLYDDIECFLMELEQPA
GACGGTTTCTGTATCGGGACGTGCTAG: 3.16 z-score
TTAGGTTTCGGGTATCGGTCAGTGCTA: 6.81 z-score
TTAGGACTGGTACTGCTTTAGTGCTAG: 0.282 z-score
TCATCCTTTGCTTTCTCACTGTGCTAG: 0.966 z-score
GTTTTTCTCCTATTTAAGACGTGCTAG: 4.4 z-score
GACTATCTCAGACTGGAGACGTGCTAG: 0.18 z-score
TTAGAACTGAGATTGGATTAGTGCTAG: -0.226 z-score
AATTCTTTGCTCATTTTTCAGGTGCTA: 0.345 z-score
GTTTTTTTCTATATGCAATGGTGCTAG: 3.04 z-score
TCATCTCTGGTCTTTGTACTGTGCTAG: 0.187 z-score
GACGGTCTCGGGTTCGGGACGTGCTAG: 2.4 z-score
GACGGACTGGGCCTGGGGACGTGCTAG: -0.893 z-score
GACGAACAGAGTTTCGAGACGTGCTAG: 3.52 z-score
GACGATCTCAGACTGGAGTCGTGCTAG: -0.052 z-score
CACAGAACATATTAGTATATGTGCTAG: -0.00815 z-score
GACGGTACCCTTTTCCTGACGTGCTAG: 1.15 z-score
TTAGGTTTGGGACTGGGTTAGTGCTAG: -0.134 z-score
TTAGGTTTCTGTTCCGGTTAGTGCTAG: 6.5 z-score
GACGGTATCGACTAGCGGGACGTGCTA: -0.285 z-score
GACGGTATCTACTTTCGGGACGTGCTA: 0.408 z-score
CGGAATTTCCCTCTGCTCCTGTGCTAG: 1.06 z-score
GCCGGTCTCCTACTGCTGACGTGCTAG: -0.206 z-score
TTAGGTATCGGGTTACGGTTAGTGCTA: 3.41 z-score
TTAGGTTTCGGTGCCGGTTAGTGCTAG: 2.97 z-score
GAATGTGTCTTAAATAGGGCAGTGCTA: -0.198 z-score

Block 3 — technique: RNA Bind-n-Seq; form: RNA; sample: in vitro; concentration: 100 nM; relative to: input RNA pool; reading: higher = stronger binding; endpoint: bound/input enrichment
Target: RING finger protein unkempt homolog, zinc fingers 1-6, SBP tag (UNK, Homo sapiens, UniProt Q9C0B0, residues 30-357)
Chain of UniProt Q9C0B0 (30-357, looked up): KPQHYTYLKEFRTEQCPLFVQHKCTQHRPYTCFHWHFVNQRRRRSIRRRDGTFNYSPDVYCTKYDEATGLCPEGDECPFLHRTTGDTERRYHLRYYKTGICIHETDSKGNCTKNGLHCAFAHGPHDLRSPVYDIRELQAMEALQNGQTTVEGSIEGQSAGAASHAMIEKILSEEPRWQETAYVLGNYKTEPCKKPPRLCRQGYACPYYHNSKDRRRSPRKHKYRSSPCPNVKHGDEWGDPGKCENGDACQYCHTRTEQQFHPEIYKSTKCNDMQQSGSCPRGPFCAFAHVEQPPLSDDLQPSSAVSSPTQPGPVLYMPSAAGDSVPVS
Notes: RNA with constant flanks, vertebrate orthologous sites, ends assumed
Shared flanks, not repeated: GGGAGUUCUACAGUCCGACGAUC … CAACAGAGGAUUGAGCAUCA
AGCUCUAGUUCUUAACAACCAACACUCCUAAGAGAUUUAGAAAAAGUUUACAACAGAAUCUAGUUUACAAAGAAGUCUUGUGCUAGAAUACUUUUUAAAAGUAUUUUUGAAUACCAUUAA: 0.535 ratio
AGCUUCUGGAGACAUUUGGCCUGGCCUUUCAGCGUAUGAUAACAGUCCAAGGUCACCCCAUAGUCCUUCUAUUGCCUCCCCGCCUAGUCAGAGUUCAUCUUGCUCUGAUGCCCCUCUGCU: 0.814 ratio
UUUGCUUUCUUGUCUUUUGACCUCAUUUCUUUAUUUUUAUCUUCAUUUUAUUUUCUUUUUCUAGUGUUGUUACCCACGCCAUUUUAUGUCUCCUUCACUGAAGGGCUAGAGUUUUAACUU: 7.77 ratio
AUUUUUUAAAGUUUUUUUAAUUUAAUUUUUCCUUUUGGGGGUACAGUUUGCUCUACCAAAUAGUGAUCGUAACAAAUUGAUCUGUUUUGGAUGUUGCUAUAGUGACAUGCAGUUAUAUAU: 0.856 ratio
UAUUAGUGUCAUACCAGCAUAUUAACCUCUCGUCUGUGCACAGCUUCAAAUGUUACCGUCUAGUUAGAUUUUUAUUUAAAAUAUGAAAGACUGCUUUUCCCAAGACGUUUUUUAAAAACA: 1.94 ratio
UACAAUCUUACACUUAAACUGGUAUUUUCAAACAAUAGGAAAUUUUCUUUUUUUACAGAUUAGUGUAUCUGGUUUCUACAUGGAAGACUAAACUGAUGCUUAUUGCUAAAUGUGGUCUUU: 0.369 ratio
GUUUUUUCAUGAGACAUGUCUAUCUAGAGAAGUAGGUAAUCUUAUUGAUAUGAAAUAAUUUACCUAGCCUAAUUUUUAGGCAUUGUAUGUAAAGUAUUUAAAGUGAAUUUGAAAAAAAAA: 0.378 ratio
UGAGAGAGAGAUUUCUGUGGUUUUUAAUAUUUAAUUUGUUCUUUUUAAAAUAUUCCAAUAUGCCAUUUUUGAUGGAACUGGUAUAUUGACAGUUCUCACCUAAGUCUUCAUGAAGAAUCG: 0.669 ratio

Block 4 — target: CCNB1, cyclin fold, Cln2 fusion (human); technique: yeast growth competition, sequencing; sample: yeast; notes: weak parent motif; relative to: not given; reading: higher = stronger binding; endpoint: normalised enrichment score
Starting sequence: CDC25A docking peptide (human); PPHRRRLLFACSP
L8P: -0.219
S12D: 0.926
P2W: 0.583
R4D: 0.223
L7Y: 0.515
R6W: 0.884
R5S: 0.85
R6M: 1.41
P2C: 1.27
P13W: -0.00645
P1C: 0.192
H3F: 1.11
P2Y: 1.12
P1S: 0.19
H3P: 0.224
L7F: 0.271
P1D: 0.624
L8T: 0.882
A10R: 0.824
L8R: 0.173
R4P: 0.0115
P1Y: 0.664
H3M: 0.62
R6K: 0.242
P1G: 0.653

Block 5 — technique: protein binding microarray; form: double-stranded DNA, one strand shown; sample: in vitro; concentration: not given; relative to: not given; reading: higher = stronger binding; endpoint: E-score
Target: Histone acetyltransferase KAT6A, winged helix 1, GST fusion (KAT6A, Homo sapiens, UniProt Q92794, residues 1-85)
Notes: 8-mer, flanks averaged, mean of 2 arrays, mostly near background
Construct (chain): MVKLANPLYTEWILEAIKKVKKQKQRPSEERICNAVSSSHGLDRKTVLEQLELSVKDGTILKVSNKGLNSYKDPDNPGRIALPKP
AATCTCTG: -0.221
CTGATCCA: -0.214
TACGCTAA: 0.259
AACGTCTT: -0.127
ACACTGTC: -0.00996
ACAAGTTA: 0.0172
AAGGATCG: -0.0348
CATAACAC: -0.216
AAATCCGG: 0.178
AGGCCTCC: -0.098
AAGATGAG: -0.239
AGCACGGC: 0.237
CAAAGTTA: -0.106
TCTCCGAA: 0.0271
CAGAGGTA: -0.167
ACAGTGGT: -0.279
CCCGTCAG: 0.213
GCCGTATA: 0.317
GGTAATAA: -0.0015
GGCGCGAA: 0.269
GCTCTACC: 0.00349
GTTAGTGA: -0.168
AAACGTAC: -0.116
CCATCCTC: -0.0444
CATGTTCG: -0.0644

Block 6 — technique: RNA Bind-n-Seq; form: RNA; sample: in vitro; concentration: 1 µM; notes: whole 134-nt RNA, ends assumed; with: 150 mM KCl; relative to: input library; reading: higher = stronger binding; endpoint: log2 enrichment
Target: Ras GTPase-activating protein-binding protein 1, RRM domain (G3BP1, Homo sapiens, UniProt Q13283)
Chain of UniProt Q13283 (whole entry, looked up): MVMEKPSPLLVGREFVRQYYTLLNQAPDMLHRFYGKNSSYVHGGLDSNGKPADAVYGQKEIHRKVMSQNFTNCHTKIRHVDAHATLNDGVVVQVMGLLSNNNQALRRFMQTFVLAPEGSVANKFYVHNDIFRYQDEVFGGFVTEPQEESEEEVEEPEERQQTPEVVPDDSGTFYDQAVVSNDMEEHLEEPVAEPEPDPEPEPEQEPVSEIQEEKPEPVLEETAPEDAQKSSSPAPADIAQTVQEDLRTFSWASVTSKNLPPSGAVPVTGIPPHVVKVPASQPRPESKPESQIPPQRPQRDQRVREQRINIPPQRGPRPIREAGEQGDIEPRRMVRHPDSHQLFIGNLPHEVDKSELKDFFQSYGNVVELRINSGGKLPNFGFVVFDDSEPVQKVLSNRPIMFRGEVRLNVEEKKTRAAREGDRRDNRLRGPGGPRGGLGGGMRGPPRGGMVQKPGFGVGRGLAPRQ
Shared flanks, not repeated: GGGAGUUCUACAGUCCGACGAUC … UGGAAUUCUCGGGUGUCAAGG
UGGCCCUGGUGGCAUGCGGGGAGGAAGAGGUGGCCUCAUGGAUCGUGGUGUUCCCGGUGGAAUGUUCAGAGGUGGCCGUGGUGGAGACAG: 0.315
ACCAUGCAGGUGGGCAUCUUUGGGAAGUGGGGCAAGGGGGGGAUAGGGAGGGGGGUAACACUUUGGGAACUGGUGGUCCCAGGUCGUUUC: 0.631
CUGCGCGCGGAUUUCCCUCUCUGAGGAAGUUUAUCCUUGUGCCUUCUGGAGGAUUUCUCUCUAGCUCGACUCACUCUGGACUGACUCGCU: -0.283
UCAAUGCCGGCUAUGCCCUGGCCCCAGCCACCAGUGCCAACGACAGCGAGCAGCAGAGCCUGUCCAGCGAUGCAGACACCCUGUCCCUCA: -0.122
GUCCUGUGCUACACAUCGUAUGUACCGAAUCGGUUUUUUGGGGUUUUUUGGUUUUUUGGAAAGUAUUAUGUUACGCCGUUCGGAUCUGCA: -0.207
UCCUGUGCUACACAUCGUAUGUACCGAAUCAAACCCCCCCAAAUUUUUAAACCCCCAAAAAAGUAUUAUGUUACGCCGUUCGGAUCUGCA: -0.194
ACCAUGCAGGUGGGCAUCUUUGGGAAGUGGGGCAAGGGGGGGAUAGGGAGGGGGGUAACACUUUGGGAACAGGAAAUCCCAGGUCGUUUC: -0.379
AGUCCUGUGCUACACAUCGUAUGUACCGAAUCGGGGUGGGGAAAAAGGGGAAAGGGGAAAGUAUUAUGUUACGCCGUUCGGAUCUGCACU: 1.22
UUUCUAGGGAAGGUGCUUCUGGAAAAGUUGCUGAGGUCUUGUCCUAAGGUGAAUUCAGUAUAUGUUUUGGUGAGGCAGAAAGCUGGACAG: -0.252
CACAGACAACACGCACCCACACAGACACAGAGGGAAGGGGUUGGGAUGGGGACAGGGUGCACAGCAGGGCUGGGUAGGACCCCAGCCCCU: -0.354
AAGUCCUGUGCUACACAUCGUAUGUACCGAAUCGGGUUUUGGGUUUUGGUUUUGGGGAAAGUAUUAUGUUACGCCGUUCGGAUCUGCACU: 0.012
CAAGUCCUGUGCUACACAUCGUAUGUACCGAAUCGGGUUUGGGGUUUGGUUUGGGGAAAGUAUUAUGUUACGCCGUUCGGAUCUGCACUU: -0.239
UGGGAGGUGGAUUUUGUUUAUUUUUUUAGCUCAUUUCCAGGGGUGGGAAUUUUUUUUUAAUAUGUGUCAUGAAUAAAGUUGUUUUUCAAA: 2.8
AAGUCCUGUGCUACACAUCGUAUGUACCGAAUCGGGUGGGAAAAAGGGAAAAAGGGAAAGUAUUAUGUUACGCCGUUCGGAUCUGCACUU: 0.607

Mixed results
PhoQ, residues 284 288 289 292 302 303 AMDMFI  fold induction (PhoP, residues 12 14 15 18 19 SYFRT (Escherichia coli, UniProt P23836); Sort-seq, measured: YFP reporter; E. coli; PhoQ-PhoP variant library, with: 10 µM Mg2+; relative to: high Mg2+ state, higher = stronger signaling): 2.22

For quick reference, copied from above (block 1):
2'F-ANA at 4 6 7 9 10 12 13 15: 81.3 a.u.
2'F-ANA at 2 5 6 8 12 15: 305 a.u.
2'F-ANA at 2 7 8 10 12 14 15: 103 a.u.
2'F-ANA at 2 4 7 8 9 10 11 13 15: 73.8 a.u.
2'F-ANA at 4 5 7 9 10 12 13: 88.3 a.u.
2'F-ANA at 1 4 5 8 9 11 12: 91.3 a.u.
2'F-ANA at 1 2 4 7 13 15: 96.1 a.u.
2'F-ANA at 2 3 4 7 8 10 11 15: 234 a.u.
